Published values from different studies.
Protocols differ between the studies behind these lines. “And” joins repeats or separate records; there may be more than shown. Numbers after ± are the reported error.

| Compound | tested on | test | test system | setting | scale | endpoint | value |
| --- | --- | --- | --- | --- | --- | --- | --- |
| Clc1nc(NCc2ccco2)c2[nH]cnc2n1 | FD iPSC-derived cardiomyocytes | alternative splicing, RNA-seq, item: IDH3A exon chr15:78156907-78157162 | – | unit not given | relative to: DMSO minus compound | ΔPSI | 0.244 |
| Cc1c(C(=O)O)ccc2c3n(nc12)[C@@H]1[C@H](C3)N(CC2CC2)[C@@]2(C(=O)Nc3cc(Cl)ccc32)[C@H]1c1cccc(Cl)c1F | UM-UC-11 (MDM2-amplified) | cell proliferation, alamarBlue | – | 120 h | – | IC50 | 0.022 µM |
| CCOc1nc(-c2cccc(O)c2)cc(-c2cc3ccccc3nc2N2CCOCC2)c1C#N | NFS-60 | MTT | – | – | relative to: WI-38 EC50 over NFS-60 IC50 | selectivity ratio | 0.447 |
| Cc1[nH]c(C)c(-c2ccc(OCc3cc(F)cc(F)c3)nc2)c(=O)c1Br | Plasmodium yoelii | – | 17XL | 384-well | – | IC50 | 0.313 ± 0.065 µM |
| O=c1[nH][nH]c2nnc(-c3c(-c4ccccc4)nn4ccccc34)cc12 | HeLa expressing Ub(G76V)-GFP | Ub(G76V)-GFP degradation, cycloheximide chase | – | 12 µM | – | inhibition | 25% |
| C=C(C)[C@@H](CC=C(C)C)C[C@@]12C[C@@H](CC=C(C)C)C(C)(C)[C@@](CC=C(C)C)(C(=O)C(C(=O)c3ccc(O)c(O)c3)=C1O)C2=O | HBL-1 | – | – | 1 µM, 120 h | – | viability | 56.7% |
| Cn1cc(-c2ccc(-c3cncc(Cl)c3N3CCC4(CCNC4=O)CC3)cc2)cn1 | COLO 205 | gene expression, microarray, item: BHLHE40 mRNA | – | concentration not given, 2 h | relative to: untreated cells | log2 fold change | 2.11 |
| COc1cc2c(NC3CCN(CC4CCCCC4)CC3)nc(N3CCCN(C(C)C)CC3)nc2cc1OCCCN1CCCCC1 | HBL-1 | – | – | 1 µM, 120 h | – | viability | 112% |
| COc1ccc2c(c1)c(C1=C(c3c[nH]c4ccccc34)C(=O)NC1=O)cn2CCCN(C)C | HeLa expressing Ub(G76V)-GFP | Ub(G76V)-GFP degradation, inhibitor, cycloheximide chase | – | 12 µM | – | inhibition | 23% |
| CC(C)n1c(/C=C/C(O)CC(O)CC(=O)O)c(-c2ccc(F)cc2)c2ccccc21 (centres unmarked) | BT-12 | cell viability, MTT | – | 10 µM, 72 h | – | inhibition | 80.6% |
| CCCCc1nc(Cl)c(CO)n1Cc1ccc(-c2ccccc2-c2nn[nH]n2)cc1 | human PBMC | RNA-seq, item: CD302 mRNA | – | 10 µg/mL, 24 h | relative to: untreated control | log2 fold change | -1.52 |
| CCc1cc2c(N3CCN(c4nncs4)CC3)ncnc2s1 | HBL-1 | – | – | 0.5 µM, 120 h | – | viability | 132% |
| CC[S+]([O-])c1nc(-c2cccc(OCc3ccccc3)c2)cc(C(F)(F)F)n1 (centres unmarked) | HeLa Kyoto | RelA nuclear import, high content imaging | – | 0.05 µM, 3 h, with: 1 µM PMA, 60 min | – | cells with nuclear RelA | 85.4% and 83.5% |
| CN(C)CC(=O)N1CCC(c2ccc(NC(=O)c3nc(C#N)c[nH]3)c(C3=CCCCC3)c2)CC1 | hiPSC cardiomyocytes | CellTiter-Glo | – | concentration not given, 24 h | relative to: vehicle | ATP level | 85% |
| O=C(CCCCCN1C(=O)c2cccc3cccc(c23)C1=O)NO | HBL-1 | – | – | 0.5 µM, 120 h | – | viability | 86.7% |
| Cn1cc(Nc2nccc(-c3ccc4c(c3)CN(C3COC3)CC[C@H]4NC(=O)c3cn(C(C)(C)C)nn3)n2)cn1 | human B cells | – | – | 100 nM, 64 h, stimulation-upregulated genes, with: CD40L, anti-IgM, IL-21 | – | number of downregulated genes | 475 |
| COc1cccc(-c2cc(=O)c3ccccc3o2)c1N | HeLa expressing Ub(G76V)-GFP | Ub(G76V)-GFP degradation, cycloheximide chase | – | 12 µM | – | inhibition | 34% |
| CCCCN1C[C@H](O)[C@@H](O)[C@@H](O)[C@H]1CO | sample H patient fibroblasts | Gb3 level lowering, LC-MS/MS, item: Gb3 d18:1/16:0 | – | 216 h | – | IC50 | 12.4 µM |
| O=C(CCCCCCC(=O)Nc1ccc(I)cc1)NO | HBL-1 | – | – | 0.5 µM, 120 h | – | viability | 4.17% |

| Compound | tested on | test | test system | setting | scale | endpoint | value |
| --- | --- | --- | --- | --- | --- | --- | --- |
| O=C(NC1CCN(CCCCC2(C(=O)NCC(F)(F)F)c3ccccc3-c3ccccc32)CC1)c1ccccc1-c1ccc(C(F)(F)F)cc1 | BT-12 | cell viability, MTT | – | 10 µM, 72 h | – | inhibition | 94.3% |
| CC(C)C[C@@H](C=O)NC(=O)[C@H](CC(C)C)NC(=O)[C@H](CC(C)C)NC(=O)OCc1ccccc1 | HeLa expressing Ub(G76V)-GFP | Ub(G76V)-GFP degradation, cycloheximide chase | – | 0.039 µM | relative to: DMSO | remaining activity | 73% |
| COc1cc(/C=C/C(=O)N2CCC=CC2=O)cc(OC)c1OC | MDA-MB-468 | quantitative RT-PCR, item: NDUFS4 | – | 30 µM, 8 h | relative to: untreated cells | mRNA level | 76.1 ± 6.5% |
| C[C@H]1[C@@H](O)O[C@@H]2O[C@@]3(C)CC[C@H]4[C@H](C)CC[C@@H]1[C@@]24OO3 | THP-1 | annexin V/PI flow cytometry, item: annexin V-/PI- | – | 0.8 µM, 24 h | – | viable cells | 96.7% |
| Cl.Cl.O=S(=O)(NCCNC/C=C/c1ccc(Br)cc1)c1cccc2cnccc12 | HeLa expressing Ub(G76V)-GFP | Ub(G76V)-GFP degradation, cycloheximide chase | – | 12 µM | – | inhibition | 21% |
| O=C(C[C@@H](C(F)F)n1ccc(F)n1)N1CCC(O)(Cn2cnc3c(cnn3-c3ccc(F)cc3)c2=O)CC1 | CHP-212 resistant cells (pooled) | annexin V-PI flow cytometry | – | 0.3 µM, 48 h | – | apoptotic cells (early plus late) | 9.54% and 10.6% and 11.8% |
| CC(C)[C@H](NC(=O)c1cc(Cl)ccc1OCCNC(=O)OC(C)(C)C)C(=O)Nc1ccc([N+](=O)[O-])cc1Cl | MDA-MB-231 | – | – | 0.1 to 10 µM, 2 weeks | – | colony formation | inhibited |
| CC/C(=N\NC(=O)NCc1cccc(O)c1)c1ccc(O)c(C)c1O | SK-OV-3 | Western blot, item: LATS | – | 10 µM, 3 h, 2D culture, unit not given | relative to: β-actin | protein level | 1.02 ± 0.59 |
| Nc1nc(=S)c2[nH]cnc2[nH]1 | HBL-1 | – | – | 0.1 µM, 120 h | – | viability | 123% |
| O=C(CCCCCN1C(=O)c2cccc3cccc(c23)C1=O)NO | BT-12 | cell viability, MTT | – | 10 µM, 72 h | – | inhibition | 81.2% |
| CCn1cc(-c2cc(Cn3ccoc3=N)cc3c2CCN([C@@H](C)c2cc(OC)ccn2)C3=O)c(C(F)(F)F)n1 | RPMI-7951 | cell growth, inhibitor | – | 120 h | – | EC50 | > 30 µM |
| C=C1C(=O)O[C@H]2[C@H]1CC/C(C)=C/CC[C@@]1(C)O[C@@H]21 | BT-12 | cell viability, MTT | – | 10 µM, 72 h | – | inhibition | 94.8% |
| COc1cc2ncnc(Nc3ccc(Oc4ccccc4)c(C)c3C)c2cc1OC.Cl | LoVo (KRAS G13D) | cell viability, resazurin | – | 0.1 µM, 72 h, with: trametinib 0 nM | relative to: DMSO | average fractional effect | 6% |
| Cc1ccc(CNC(=O)Cn2cc(CSc3nc4ccccc4[nH]3)nn2)cc1 | Caco-2 | MTT | – | 250 ppm | – | cytotoxicity | 89.6% |
| Cn1c(Nc2nc3ccc(C(F)(F)F)cc3s2)nc2cc(C(=O)NCCOCCO)ccc21 | SH-SY5Y | RNA-seq, item: SPOCD1 mRNA | – | 5 µM, 5 h | relative to: untreated cells | fold change | 5.12 |
| CCn1cc(-c2cc(Cn3ccnc3)cc3c2CCN([C@H](c2cc(OC)ccn2)C2CC2)C3=O)c(C(F)(F)F)n1 | HuTu80 | cell growth, inhibitor | – | 120 h | – | EC50 | 9.27 µM |
| CC1(C)CN(CCCCC(=O)N[C@@H](CCC(=O)O)C(=O)N[C@@H](CCC(=O)O)C(=O)N[C@H](CCCCNC(=O)CCCCCCC(=O)NCCCC[C@H](NC(=O)N[C@@H](CCC(=O)O)C(=O)O)C(=O)O)C(=O)O)CC[N]2CC(C)(C)[S][Tc]2(=[O])[S]1 (some centres unmarked) [technetium-99m labelled] | LNCaP | – | – | 25 nM, 1 h, 37 °C | – | internalized activity | 2.46 ± 0.79 %AD/mg protein |
| O=C(/C=C/C=C/C=C/C1CCCCC1)NC1=C[C@@](O)(/C=C/C=C/C=C/C(=O)NC2=C(O)CCC2=O)[C@@H]2O[C@@H]2C1=O | A2058 | cell growth, CellTiter-Glo | – | 78 h | – | GI50 | 19.3 µM |
| COC(=O)[C@]12CCC(C)(C)C[C@H]1[C@H]1C(=O)C=C3[C@@]4(C)C=C(C#N)C(=O)C(C)(C)[C@@H]4CC[C@@]3(C)[C@]1(C)CC2 | HepG2 | high content imaging, item: DNA structure | – | 24 h, distribution mode 2 | – | point of departure | 0.891 µM |

| Compound | tested on | test | test system | setting | scale | endpoint | value |
| --- | --- | --- | --- | --- | --- | --- | --- |
| O=C1NC(=O)C(c2cn(CCCn3ccnc3)c3ccccc23)=C1Nc1ccccc1 | HeLa expressing Ub(G76V)-GFP | Ub(G76V)-GFP degradation, cycloheximide chase | – | 12 µM | – | inhibition | 40% |
| CCS(=O)(=O)c1nc(C2CC2)cc(C(F)(F)F)n1 | HeLa Kyoto | RelA nuclear import, high content imaging | – | 0.05 µM, 3 h, with: 1 µM PMA, 60 min | – | cells with nuclear RelA | 68.6% and 89.6% |
| Nc1ncnc2c1ncn2[C@@H]1C=C(CO)[C@@H](O)[C@H]1O | HBL-1 | – | – | 1 µM, 120 h | – | viability | 51.3% |
| C=C1CC(C(=O)Nc2cc(C(=O)NC)cc(-c3sccc3CCCCCCCC)c2OC)C1 | HEK293 expressing human TREM2/DAP12 | agonist, AlphaLISA | – | 5 to 100 µM, average over concentrations | relative to: untreated | phospho-Syk level | ~2 fold |
| Cc1[nH]c(C)c(-c2ccc(OCCSc3ccncc3)cc2)c(=O)c1Br | Plasmodium yoelii | – | 17XL | 384-well | – | IC50 | 0.964 ± 0.123 µM |
| COc1ccc(NC(=S)N/N=C/c2cccc3cc4ccccc4nc23)cc1 | HeLa | PI flow cytometry | – | IC25, 48 h | – | G2/M phase cells | 11.1 ± 1.5% |
| Nc1nc(S)nc(O)c1N=Cc1cn(-c2ccccc2)nc1-c1ccc(Cl)cc1 | CCRF-CEM | JC-1 flow cytometry | – | CC50, 5 h | – | depolarized mitochondria | 24.9% |
| COc1cc2ncnc(Nc3ccc(NC(=O)c4ccccc4)cc3)c2cc1OC | HeLa expressing Ub(G76V)-GFP | Ub(G76V)-GFP degradation, inhibitor, cycloheximide chase | – | 12 µM | – | inhibition | 23% |
| COc1cc2c(c(OC)c1OC)-c1ccc(OC)c(=O)cc1[C@@H](NC(C)=O)CC2 | BT-12 | cell viability, MTT | – | 10 µM, 72 h | – | inhibition | 88.9% |
| c1ccc(-c2[nH]ncc2-c2ccnc3ccccc23)nc1 | HeLa expressing Ub(G76V)-GFP | Ub(G76V)-GFP degradation, cycloheximide chase | – | 12 µM | – | inhibition | 26% |
| OC1(c2ccc(Cl)c(C(F)(F)F)c2)CCN(CCCC(c2ccc(F)cc2)c2ccc(F)cc2)CC1 | BT-12 | cell viability, MTT | – | 10 µM, 72 h | – | inhibition | 95.9% |
| CCCc1cc(C)[nH]c(=O)c1CNC(=O)c1cc(-c2ccc(N3CCN(C(C)C)CC3)nc2)cc2c1cnn2C(C)C | HBL-1 | – | – | 1 µM, 120 h | – | viability | 113% |
| C=CCn1c(=O)c2cnc(Nc3ccc(N4CCN(C)CC4)cc3)nc2n1-c1ccc2c(n1)[C@@](O)(CC)CC2 | OVCAR-3 | flow cytometry | – | concentration not given, G2/M phase | – | γH2AX-positive cells | 29.3% |
| Cc1nn(-c2nc3c(F)cc(F)cc3s2)c(O)c1C(c1ccc(C(F)(F)F)cc1)c1c(C)nn(-c2nc3c(F)cc(F)cc3s2)c1O | THP1-Dual | IFN luciferase reporter | – | 20 µM, with: HT-DNA | – | inhibition | 86.6% and 87.4% and 94% and 86.2% and 94.1% and 87.6% |
| COc1cnc2cccc(N3CCc4c(cc(Cn5ccnc5C)cc4-c4cn(C)nc4C(F)(F)F)C3=O)c2c1 | KNS-62 | cell growth, inhibitor | – | 120 h | – | EC50 | 8.87 µM |
| CCC1=C[C@@H]2CN(C1)Cc1c([nH]c3ccccc13)[C@@](C(=O)OC)(c1cc3c(cc1OC)N(C)[C@H]1[C@@](O)(C(=O)OC)[C@H](OC(C)=O)[C@]4(CC)C=CCN5CC[C@]31[C@@H]54)C2 | BT-12 | cell viability, MTT | – | 10 µM, 72 h | – | inhibition | 86.7% |
| Cc1cc(Nc2ncc(Cl)c(Nc3ccccc3S(=O)(=O)C(C)C)n2)c(OC(C)C)cc1C1CCNCC1 | CLB-GE | phosphoproteomics LC-MS/MS, item: LPIN1 phosphorylation | – | 200 nM, 60 min | relative to: untreated | log2 fold change | -2.29 |
| COc1ccc(-n2nc(C(C)=O)s/c2=N\N=C(/C)c2ccc(NC(=O)c3ccc(C)cc3)cc2)cc1 | HepG2 | – | – | 0.312 µM | – | toxicity | 78.8% |
